Assay results from different studies.
Numbered parts are unrelated; each lists some results of a single study.

Study 1 — method: EMSA with sequencing; form: double-stranded DNA, one strand shown; matrix: in vitro; tested at: 10 and 20 nM; relative to: negative control set to 0; reading: higher = stronger binding; endpoint: normalised bound fraction
Target: Hepatocyte nuclear factor 3-alpha (Foxa1, Mus musculus, UniProt P35582, residues 1-468, full length assumed)
Setting: whole designed probe, mean of two concentrations, ends assumed
Target sequence (chain): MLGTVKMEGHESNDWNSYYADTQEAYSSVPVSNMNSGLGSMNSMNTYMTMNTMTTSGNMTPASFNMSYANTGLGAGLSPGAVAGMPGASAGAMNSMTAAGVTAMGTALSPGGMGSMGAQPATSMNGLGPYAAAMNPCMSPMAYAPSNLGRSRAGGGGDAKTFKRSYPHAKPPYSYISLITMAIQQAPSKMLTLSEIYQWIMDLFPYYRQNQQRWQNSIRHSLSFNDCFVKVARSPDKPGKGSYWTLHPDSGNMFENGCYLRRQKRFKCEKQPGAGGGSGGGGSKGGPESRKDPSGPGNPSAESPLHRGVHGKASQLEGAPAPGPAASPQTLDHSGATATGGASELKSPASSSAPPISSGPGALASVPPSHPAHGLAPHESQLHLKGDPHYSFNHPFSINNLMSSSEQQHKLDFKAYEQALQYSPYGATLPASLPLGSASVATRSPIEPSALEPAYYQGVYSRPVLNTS
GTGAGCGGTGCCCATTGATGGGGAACTCTTTCACTCAAGTGGTATATCCCACAGCCCTAAAGAAGCAAGGGAAATAAGAATTAGAACTAGACATCCCAGGAGACAAAGAATTCAACAAAGCAAACATTAACCAATCCCCACTTCCTGCTTCACTATTTACAGAAAATCTCTCTGGCTCAGGCCGGGCAGTGAGTTCATTTATTTCAACAAAATCAAAGATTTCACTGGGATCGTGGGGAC: 0.26 ratio
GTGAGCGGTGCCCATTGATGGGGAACATCTTCCCCCTCTTCCTTGCCCCACCAGCTCACCTTCCCGGGTATCTGCAAATAAGTATTTATTTTCAAGCCGGCATTCGTTAACCCTCTTCTGGCGCAAACTGCTGTTTACTTTGGATCTAACATGGTCCTTTGGCGACGCCAGGCTCCGGGAGAGCAAAGCACCGTGTCAGGGCCATGATCCGGGGTGGCCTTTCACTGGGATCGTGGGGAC: 0.392 ratio
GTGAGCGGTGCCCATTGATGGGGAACGTAGGCCTCTGCTGCACCTGTCAACTCCACCTGGCGGCACAGAAGCTGCCAACGGTACGTCAGTGAGTTACCTTGGCCGTGTTCCAGTGAAACTGTTTACACAGGCAGGTGGAAGTGACTGTGGTGATGGTTGCGTAACTCTGTGAACACACTGGAAACCATTGAATGTGTGTACTTGATCTGAATTGCGTGGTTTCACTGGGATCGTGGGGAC: 0.408 ratio
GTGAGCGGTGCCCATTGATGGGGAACGGGTCAAGTGGCCACCCAGAGAGCTGATGCATGCTGATGTGAGACTCCTACAAGCCATGAGACAAAACAGACTTATAAACATGTAACGTGTTGAGATGACACAAGGAACCAAGCAGTGATGAGGAATGTGCCAATGGCTGAGATGGAGCAACCCACTTGCTGAGTCTTGCAAAAGCAACCTCCCTAGATGAACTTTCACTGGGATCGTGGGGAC: -0.0323 ratio
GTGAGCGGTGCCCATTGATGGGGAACTTTAAACTTTTGTAAAAATGTTCAAAGAGAATCTGTTGTTAGAAGTTTAACATTCTGATTTAACTGTTTTGAATACGAAAAATACAAACTCAAAGTAATCTTCTAAAATATAAGGCAAATCTATCCATATAGAAAAGGAATAAGAAGGTACTGACCAATGAAGTTGAAACAACACTGTCATATTAATCTCAAATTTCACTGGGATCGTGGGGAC: -0.0194 ratio

Study 2 — method: competition protein-binding microarray; form: double-stranded DNA, one strand shown; matrix: in vitro; tested at: 2 µM; together with: Pho4 competitor, 0.05 µM; reading: higher = stronger binding; endpoint: fluorescence intensity
Target: Centromere-binding protein 1, full length, His-tagged (CBF1, Saccharomyces cerevisiae, UniProt P17106, residues 1-351)
Chain of UniProt P17106 (whole entry, looked up): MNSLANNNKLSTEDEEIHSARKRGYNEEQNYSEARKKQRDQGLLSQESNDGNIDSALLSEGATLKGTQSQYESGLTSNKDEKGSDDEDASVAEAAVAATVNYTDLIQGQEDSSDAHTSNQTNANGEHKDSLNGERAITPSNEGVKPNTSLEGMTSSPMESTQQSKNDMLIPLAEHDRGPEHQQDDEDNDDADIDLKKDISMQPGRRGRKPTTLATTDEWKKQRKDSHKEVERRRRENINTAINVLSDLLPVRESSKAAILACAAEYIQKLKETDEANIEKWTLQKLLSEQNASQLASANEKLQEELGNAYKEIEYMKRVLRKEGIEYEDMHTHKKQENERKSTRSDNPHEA
Setting: whole 60-bp probe, lowest competitor level
GTTTTGCTAGGTAACCACGTTGGTCTAGAAATCGCAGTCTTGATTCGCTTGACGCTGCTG: 115 a.u.
GAAGATCCAAGCCTGCACCTGACGGGTTCGAAAAAAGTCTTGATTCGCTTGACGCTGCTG: 132 a.u.
AAATTACTAAGTTGTCACTACACTTACCCCGTATGAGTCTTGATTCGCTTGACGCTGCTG: 75.5 a.u.
AAAGTGCCCCCCGGCGTCGTGATGGACCTGATTGGAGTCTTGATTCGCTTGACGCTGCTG: 108 a.u.
CTTGGAGACACCCTTCACGGGCCGCCCGGGTATCCGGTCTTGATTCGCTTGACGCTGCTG: 47.7 a.u.
CCTCAGGAAGACCTAAATGTGACGGTTCATCGTAGTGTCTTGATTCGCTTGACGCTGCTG: 73.2 a.u.
AATCCAATATTGAAAAACGTGAGTACGCAGAGGAGAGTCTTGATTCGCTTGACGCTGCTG: 226 a.u.
TTTCCACAAACTCACCACGTTGAGAGTGTGTGTATAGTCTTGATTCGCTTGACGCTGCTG: 90 a.u.
CATACCCAACCTTGTAACGTGGGTGAAGATATTTGTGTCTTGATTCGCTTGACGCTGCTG: 92.4 a.u.
AAATTACTAAGTTGGGCGGTGGGTGACGCCGTATGAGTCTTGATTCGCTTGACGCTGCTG: 64.3 a.u.
ACAAAATCGGCTTTTTACGTGACGGAAGAAGGTTAAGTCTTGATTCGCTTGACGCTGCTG: 79.4 a.u.
CTAACGAAGGTTTGACGCGTGGGTGACAAGCCAAGTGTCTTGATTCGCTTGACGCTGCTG: 83.3 a.u.
TGAAGACCCACCCATCACGTCTATCCCGCCAGAGTCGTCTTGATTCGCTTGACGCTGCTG: 76.8 a.u.
TGCGCAACAACTTGTCACCCAACTTTATGTCTAGAAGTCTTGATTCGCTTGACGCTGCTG: 73.4 a.u.
TGCGCAACAACTTGTCACGTGACTTTATGTCTAGAAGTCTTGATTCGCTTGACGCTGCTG: 31300 a.u.
TGCCTATGGTAGCTGCATGATCATACAATGCACTCCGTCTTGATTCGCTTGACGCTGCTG: 102 a.u.
CTTCTGTAAATTTGTCACTGCACTTGACGCGCCCCGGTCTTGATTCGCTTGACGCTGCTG: 92.9 a.u.
AAAGCGGTAATTTGAAAAGTGGGTGCAGATATCTATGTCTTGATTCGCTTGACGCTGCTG: 70.9 a.u.
CGTCCTAGTGATTGTCACTCAACTTCCATGAGGAAGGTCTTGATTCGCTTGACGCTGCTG: 93.5 a.u.

Study 3 — method: RNA Bind-n-Seq; form: RNA; matrix: in vitro; tested at: 1 µM; setting: whole 134-nt RNA, ends assumed; together with: 150 mM KCl; relative to: input library; reading: higher = stronger binding; endpoint: log2 enrichment
Target: Ras GTPase-activating protein-binding protein 1, C-terminal RGG region (G3BP1, Homo sapiens, UniProt Q13283)
Chain of UniProt Q13283 (whole entry, looked up): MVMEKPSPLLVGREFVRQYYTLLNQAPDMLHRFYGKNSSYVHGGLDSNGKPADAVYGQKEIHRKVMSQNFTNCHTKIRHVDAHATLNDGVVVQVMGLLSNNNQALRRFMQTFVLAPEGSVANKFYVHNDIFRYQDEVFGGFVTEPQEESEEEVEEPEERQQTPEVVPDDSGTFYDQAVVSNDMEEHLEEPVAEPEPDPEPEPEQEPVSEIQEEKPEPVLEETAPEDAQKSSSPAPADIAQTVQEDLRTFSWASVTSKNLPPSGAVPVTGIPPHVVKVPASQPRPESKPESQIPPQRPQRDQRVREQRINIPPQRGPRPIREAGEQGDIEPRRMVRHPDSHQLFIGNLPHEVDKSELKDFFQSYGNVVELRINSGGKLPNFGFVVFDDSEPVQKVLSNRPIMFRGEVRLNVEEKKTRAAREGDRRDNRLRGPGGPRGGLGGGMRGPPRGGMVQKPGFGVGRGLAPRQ
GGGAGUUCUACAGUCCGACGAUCAAGUCCUGUGCUACACAUCGUAUGUACCGAAUCGGGUUUUGGUUUUGGGUUUUGGGGAAAGUAUUAUGUUACGCCGUUCGGAUCUGCACUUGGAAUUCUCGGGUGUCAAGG: -0.831
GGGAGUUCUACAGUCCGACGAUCAAGUCCUGUGCUACACAUCGUAUGUACCGAAUCGGUUUUGGUUUUGGGGUUUUGGGGAAAGUAUUAUGUUACGCCGUUCGGAUCUGCACUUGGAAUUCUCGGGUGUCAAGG: -1.02
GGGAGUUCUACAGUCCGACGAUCCUCAAGUCCUGUGCUACACAUCGUAUGUACCGAAUCGGUUUUUUUGGAGGUGGAAAGUAUUAUGUUACGCCGUUCGGAUCUGCACUUCCAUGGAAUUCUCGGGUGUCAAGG: -1.01
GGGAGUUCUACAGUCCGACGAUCACCAUGCAGGUGGGCAUCUUUGGGAAGUGGGGCAAGGGGGGGAUAGGGAGGGGGGUAACACUUUGGGAACGGGUGGUCCCAGGUCGUUUCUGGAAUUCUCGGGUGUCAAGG: 2.54
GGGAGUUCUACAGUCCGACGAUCCUGUGCUACACAUCGUAUGUACCGAAUCGGUUUUUUUGGGGUUUUUUUGGGUUUUUUUGGGGAAAGUAUUAUGUUACGCCGUUCGGAUCUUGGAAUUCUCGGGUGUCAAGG: -1.14
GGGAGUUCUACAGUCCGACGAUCUGGCCCUGGUGGCAUGCGGGGAGGAAGAGGUGGCCUCAUGGAUCGUGGUGGUCCCGGUGGAAUGUUCAGAGGUGGCCGUGGUGUAGACAGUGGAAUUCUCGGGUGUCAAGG: 3.45
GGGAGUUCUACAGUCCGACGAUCUGGGAGGUGGAUUUUGUUUAUUUUUUUAGCUCAUUUCCAGGGGUGGGAAUUUUUUUUUAAUAUGUGUCAUAAAUAAAGUUGUUUUUGAAAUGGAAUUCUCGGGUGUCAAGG: 3.54
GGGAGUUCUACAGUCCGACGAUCCCUGUGCUACACAUCGUAUGUACCGAAUCGGGUUUUUUUGGUUUUUUUGGGUUUUUUUGGGAAAGUAUUAUGUUACGCCGUUCGGAUCUGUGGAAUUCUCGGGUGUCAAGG: -1.71
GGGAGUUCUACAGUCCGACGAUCUGGGAGGUGGAUUUUGUUUAUUUUUUUAGCUCAUUUCCAGGGGUGGGAAUUUUUUUUUAAUAUGUGUCAUGACUAAAGUUGUUUUUGAAAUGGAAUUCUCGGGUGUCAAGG: 2.67
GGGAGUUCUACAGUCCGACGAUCUCAAGUCCUGUGCUACACAUCGUAUGUACCGAAUCGGGGUUGGUUGGGUUGGGGAAAGUAUUAUGUUACGCCGUUCGGAUCUGCACUUCCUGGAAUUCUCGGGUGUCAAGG: 0.443

Study 4 — method: protein binding microarray; form: double-stranded DNA, one strand shown; matrix: in vitro; tested at: not given; relative to: not given; reading: higher = stronger binding; endpoint: E-score
Target: Histone acetyltransferase KAT6A, winged helix 2, GST fusion (KAT6A, Homo sapiens, UniProt Q92794, residues 85-181)
Setting: 8-mer, flanks averaged, mean of 2 arrays, mostly near background
Residues (chain): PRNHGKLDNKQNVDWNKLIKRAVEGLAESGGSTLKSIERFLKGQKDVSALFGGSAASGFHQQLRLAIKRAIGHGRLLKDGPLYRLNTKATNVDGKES
TCCCGAGA: 0.116
CCCTCGTC: 0.011
GTATCGCA: 0.0426
TGATAACA: -0.022
GTCGGACA: 0.0141
CGGGTATA: 0.00615
AATACACT: -0.0089
ATCTAGAT: 0.071
AATGGTGA: -0.109
CAAGTAGC: -0.089
AAAGTAAT: 0.0117
AACGCCCG: 0.138
CTTCGTCC: 0.105
CTCTTTGA: -0.0497
AAATTCTT: -0.094
ATAGGAGG: -0.0254
TCGCGCCA: 0.231
CCAGCGAG: 0.129
AAAAATCA: 0.107
ACCCCGCC: 0.158
CCCGCCCA: 0.186
GACTTCCA: -0.206
TAAACTGA: -0.00615
GATAGTCA: -0.278
GTTCATTA: 0.0314

Some of these lines once more (study 3):
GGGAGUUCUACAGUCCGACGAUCUCAAGUCCUGUGCUACACAUCGUAUGUACCGAAUCGGGGUUGGUUGGGUUGGGGAAAGUAUUAUGUUACGCCGUUCGGAUCUGCACUUCCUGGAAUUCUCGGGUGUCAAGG: 0.443
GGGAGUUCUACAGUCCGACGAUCCCUGUGCUACACAUCGUAUGUACCGAAUCGGGUUUUUUUGGUUUUUUUGGGUUUUUUUGGGAAAGUAUUAUGUUACGCCGUUCGGAUCUGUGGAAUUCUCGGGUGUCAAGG: -1.71
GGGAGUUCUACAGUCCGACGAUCACCAUGCAGGUGGGCAUCUUUGGGAAGUGGGGCAAGGGGGGGAUAGGGAGGGGGGUAACACUUUGGGAACGGGUGGUCCCAGGUCGUUUCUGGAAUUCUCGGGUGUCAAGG: 2.54
